Assay results from different studies.
Numbered parts are unrelated; each lists some results of a single study.
Sequence of UniProt P10721 (whole entry, unmodified, looked up): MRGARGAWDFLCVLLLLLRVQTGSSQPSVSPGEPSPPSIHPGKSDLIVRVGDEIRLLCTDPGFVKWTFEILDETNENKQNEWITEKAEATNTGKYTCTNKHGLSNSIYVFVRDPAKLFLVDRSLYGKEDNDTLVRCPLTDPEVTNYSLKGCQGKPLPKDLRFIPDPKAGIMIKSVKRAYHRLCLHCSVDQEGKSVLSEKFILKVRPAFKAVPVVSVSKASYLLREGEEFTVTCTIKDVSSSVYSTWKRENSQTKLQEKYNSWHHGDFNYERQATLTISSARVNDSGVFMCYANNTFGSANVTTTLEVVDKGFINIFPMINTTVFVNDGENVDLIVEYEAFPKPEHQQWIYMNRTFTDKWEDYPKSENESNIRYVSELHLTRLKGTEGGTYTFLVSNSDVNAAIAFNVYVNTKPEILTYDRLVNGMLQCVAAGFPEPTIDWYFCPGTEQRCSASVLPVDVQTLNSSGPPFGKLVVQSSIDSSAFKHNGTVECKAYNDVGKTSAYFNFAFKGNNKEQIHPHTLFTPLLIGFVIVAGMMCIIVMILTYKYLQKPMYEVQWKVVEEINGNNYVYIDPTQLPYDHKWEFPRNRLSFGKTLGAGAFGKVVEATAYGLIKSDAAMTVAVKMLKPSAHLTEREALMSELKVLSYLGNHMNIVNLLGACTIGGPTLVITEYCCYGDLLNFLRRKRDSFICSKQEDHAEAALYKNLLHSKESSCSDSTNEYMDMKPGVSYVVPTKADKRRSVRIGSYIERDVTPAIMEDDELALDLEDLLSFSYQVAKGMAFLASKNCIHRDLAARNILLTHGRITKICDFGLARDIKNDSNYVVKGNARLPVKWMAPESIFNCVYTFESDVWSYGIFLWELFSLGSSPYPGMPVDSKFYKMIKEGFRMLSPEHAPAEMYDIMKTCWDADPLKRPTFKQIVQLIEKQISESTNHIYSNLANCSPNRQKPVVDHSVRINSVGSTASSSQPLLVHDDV
Sequence of UniProt P54762 (whole entry, looked up): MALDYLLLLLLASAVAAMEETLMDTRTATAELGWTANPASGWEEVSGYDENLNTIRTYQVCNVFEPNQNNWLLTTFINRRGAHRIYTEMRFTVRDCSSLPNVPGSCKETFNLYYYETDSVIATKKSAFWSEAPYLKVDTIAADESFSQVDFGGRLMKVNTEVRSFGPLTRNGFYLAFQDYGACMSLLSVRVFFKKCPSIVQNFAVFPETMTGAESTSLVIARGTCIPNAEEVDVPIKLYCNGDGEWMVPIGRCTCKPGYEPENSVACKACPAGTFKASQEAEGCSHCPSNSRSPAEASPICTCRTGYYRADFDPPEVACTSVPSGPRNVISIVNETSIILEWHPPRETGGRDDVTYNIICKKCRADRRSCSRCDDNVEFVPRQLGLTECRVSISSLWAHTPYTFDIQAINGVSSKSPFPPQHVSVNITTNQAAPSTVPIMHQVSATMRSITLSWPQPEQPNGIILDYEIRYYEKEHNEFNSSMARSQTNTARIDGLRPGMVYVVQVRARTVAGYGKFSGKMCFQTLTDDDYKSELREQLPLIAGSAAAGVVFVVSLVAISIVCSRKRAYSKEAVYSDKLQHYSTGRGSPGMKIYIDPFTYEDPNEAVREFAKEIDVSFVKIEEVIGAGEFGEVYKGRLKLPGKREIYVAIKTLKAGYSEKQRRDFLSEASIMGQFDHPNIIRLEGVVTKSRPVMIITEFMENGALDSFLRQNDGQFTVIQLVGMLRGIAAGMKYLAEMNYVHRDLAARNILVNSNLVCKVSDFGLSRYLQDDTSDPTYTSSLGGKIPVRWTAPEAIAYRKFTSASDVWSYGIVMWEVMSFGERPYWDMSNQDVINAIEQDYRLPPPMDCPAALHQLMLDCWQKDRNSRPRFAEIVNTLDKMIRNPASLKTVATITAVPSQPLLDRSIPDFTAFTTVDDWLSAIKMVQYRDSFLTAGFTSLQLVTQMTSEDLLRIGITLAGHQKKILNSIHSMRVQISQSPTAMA
Sequence of UniProt P50406 (whole entry, looked up): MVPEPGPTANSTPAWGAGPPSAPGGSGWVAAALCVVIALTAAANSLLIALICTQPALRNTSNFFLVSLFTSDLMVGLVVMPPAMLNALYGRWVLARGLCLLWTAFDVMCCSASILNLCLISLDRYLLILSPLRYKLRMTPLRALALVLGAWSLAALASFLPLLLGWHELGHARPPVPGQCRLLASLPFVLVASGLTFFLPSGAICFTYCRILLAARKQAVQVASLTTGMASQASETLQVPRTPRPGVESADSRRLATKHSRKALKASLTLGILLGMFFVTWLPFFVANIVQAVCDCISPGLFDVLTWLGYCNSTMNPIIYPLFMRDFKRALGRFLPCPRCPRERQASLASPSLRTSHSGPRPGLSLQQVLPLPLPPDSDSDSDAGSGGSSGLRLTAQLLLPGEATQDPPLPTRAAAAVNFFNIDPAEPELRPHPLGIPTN
Sequence of UniProt O15303 (whole entry, looked up): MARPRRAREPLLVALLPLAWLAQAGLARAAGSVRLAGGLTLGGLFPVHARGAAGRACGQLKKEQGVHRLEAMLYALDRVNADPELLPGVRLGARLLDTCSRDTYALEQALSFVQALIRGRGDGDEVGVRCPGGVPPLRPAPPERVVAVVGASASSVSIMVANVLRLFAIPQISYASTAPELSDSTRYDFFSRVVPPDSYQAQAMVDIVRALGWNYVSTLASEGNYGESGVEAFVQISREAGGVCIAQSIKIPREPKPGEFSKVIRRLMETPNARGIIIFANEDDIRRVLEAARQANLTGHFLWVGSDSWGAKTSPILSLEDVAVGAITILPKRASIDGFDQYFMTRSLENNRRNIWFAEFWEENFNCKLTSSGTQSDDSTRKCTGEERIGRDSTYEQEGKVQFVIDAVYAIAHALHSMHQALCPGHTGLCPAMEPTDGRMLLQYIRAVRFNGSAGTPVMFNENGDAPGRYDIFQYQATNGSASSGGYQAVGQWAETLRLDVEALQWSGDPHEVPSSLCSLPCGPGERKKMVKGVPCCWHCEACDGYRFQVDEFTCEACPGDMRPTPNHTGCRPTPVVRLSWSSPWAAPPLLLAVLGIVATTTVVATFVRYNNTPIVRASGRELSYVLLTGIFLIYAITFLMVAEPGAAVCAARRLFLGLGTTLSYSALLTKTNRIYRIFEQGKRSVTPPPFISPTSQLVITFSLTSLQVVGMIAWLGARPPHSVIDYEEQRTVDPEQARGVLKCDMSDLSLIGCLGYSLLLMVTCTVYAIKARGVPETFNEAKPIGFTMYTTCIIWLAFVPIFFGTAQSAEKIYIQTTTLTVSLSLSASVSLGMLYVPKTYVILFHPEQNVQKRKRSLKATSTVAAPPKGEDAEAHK
Sequence of UniProt P47211 (whole entry, looked up): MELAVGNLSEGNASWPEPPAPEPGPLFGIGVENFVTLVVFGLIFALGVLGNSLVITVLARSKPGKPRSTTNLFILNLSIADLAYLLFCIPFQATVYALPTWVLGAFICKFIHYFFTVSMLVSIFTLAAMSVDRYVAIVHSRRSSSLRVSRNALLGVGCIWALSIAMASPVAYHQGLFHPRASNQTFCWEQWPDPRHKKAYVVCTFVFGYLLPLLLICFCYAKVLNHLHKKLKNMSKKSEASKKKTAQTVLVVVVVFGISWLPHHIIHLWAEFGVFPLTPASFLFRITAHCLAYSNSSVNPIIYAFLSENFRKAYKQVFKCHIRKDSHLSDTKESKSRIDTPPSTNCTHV
Sequence of UniProt P36507 (whole entry, looked up): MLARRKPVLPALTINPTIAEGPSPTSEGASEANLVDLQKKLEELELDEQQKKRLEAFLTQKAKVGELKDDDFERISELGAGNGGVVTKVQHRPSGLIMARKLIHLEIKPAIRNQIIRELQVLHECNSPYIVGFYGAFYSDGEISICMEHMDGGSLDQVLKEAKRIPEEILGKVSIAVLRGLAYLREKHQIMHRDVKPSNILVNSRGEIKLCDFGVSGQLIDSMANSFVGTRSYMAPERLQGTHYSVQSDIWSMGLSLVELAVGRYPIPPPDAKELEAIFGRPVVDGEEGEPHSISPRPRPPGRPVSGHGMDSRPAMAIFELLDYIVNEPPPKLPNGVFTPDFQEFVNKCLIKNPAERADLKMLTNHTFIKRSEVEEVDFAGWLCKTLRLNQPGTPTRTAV
Sequence of UniProt Q5UAW9 (whole entry, looked up): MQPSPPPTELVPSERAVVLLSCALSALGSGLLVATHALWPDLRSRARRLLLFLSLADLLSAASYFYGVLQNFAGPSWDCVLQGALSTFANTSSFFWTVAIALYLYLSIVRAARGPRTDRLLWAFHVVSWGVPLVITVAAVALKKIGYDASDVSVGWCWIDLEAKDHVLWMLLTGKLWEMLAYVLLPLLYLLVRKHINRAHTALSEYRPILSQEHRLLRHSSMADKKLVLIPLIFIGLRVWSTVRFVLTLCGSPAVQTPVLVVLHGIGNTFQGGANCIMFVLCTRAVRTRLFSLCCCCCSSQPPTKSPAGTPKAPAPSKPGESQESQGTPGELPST
Sequence of UniProt P37288 (whole entry, looked up): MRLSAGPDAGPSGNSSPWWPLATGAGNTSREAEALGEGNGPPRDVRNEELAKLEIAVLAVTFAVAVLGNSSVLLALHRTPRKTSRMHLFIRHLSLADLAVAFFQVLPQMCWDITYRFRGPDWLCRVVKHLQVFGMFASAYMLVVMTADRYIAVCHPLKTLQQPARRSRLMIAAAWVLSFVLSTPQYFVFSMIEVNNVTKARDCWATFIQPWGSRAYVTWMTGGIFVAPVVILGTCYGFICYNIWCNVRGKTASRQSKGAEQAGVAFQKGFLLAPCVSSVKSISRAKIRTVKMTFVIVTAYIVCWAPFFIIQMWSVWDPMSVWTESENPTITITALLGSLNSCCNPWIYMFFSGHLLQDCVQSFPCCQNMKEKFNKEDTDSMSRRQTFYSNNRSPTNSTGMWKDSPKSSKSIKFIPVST

Series 1 — observed: enzyme activity; action: inhibitor; concentration: 0.5 µM; baseline: control; quantity: remaining activity
SMILES: COc1cc2c(cc1OC)-c1[nH]nc(Nc3cccc(F)c3)c1C2
Tyrosine-protein kinase FRK (FRK, Homo sapiens, UniProt P42685): 67.9%
Ribosomal protein S6 kinase alpha-2 (RPS6KA2, Homo sapiens, UniProt Q15349): 91.4%
Serine/threonine-protein kinase ULK2 (ULK2, Homo sapiens, UniProt Q8IYT8): 97.3%
Tyrosine-protein kinase Mer (MERTK, Homo sapiens, UniProt Q12866): 78.7%
Ephrin type-A receptor 3 (EPHA3, Homo sapiens, UniProt P29320): 94.5%
Angiopoietin-1 receptor (TEK, Homo sapiens, UniProt Q02763): 92.5%
Dual specificity mitogen-activated protein kinase kinase 2 (MAP2K2, Homo sapiens, UniProt P36507): 99.8%
Wee1-like protein kinase (WEE1, Homo sapiens, UniProt P30291): 93%
Tyrosine-protein kinase JAK3 (JAK3, Homo sapiens, UniProt P52333): 98.6%
Rhodopsin kinase GRK7 (GRK7, Homo sapiens, UniProt Q8WTQ7): 101%
Fibroblast growth factor receptor 3 (FGFR3, Homo sapiens, UniProt P22607): 99.6%
Macrophage-stimulating protein receptor (MST1R, Homo sapiens, UniProt Q04912): 99.1%
Serine/threonine-protein kinase TAO2 (TAOK2, Homo sapiens, UniProt Q9UL54): 97.1%
Glycogen synthase kinase-3 beta (GSK3B, Homo sapiens, UniProt P49841): 96.6%

Series 2 — medium: hydrocarbon/water; pH: 7.4; quantity: logD
CCN1CC(=O)NC(CC(C)C)C(=O)N(C)C(C)C(=O)NC(CC(C)C)C(=O)N2CCCC2C(=O)N(CC2CCOCC2)CC(=O)NC(CC(C)C)C(=O)N(C)C(C)C(=O)NC(Cc2ccccc2)C(=O)N2CCCC2C1=O (stereo not shown): 1.96
CC(C)C[C@@H]1NC(=O)[C@H](C)N(C)C(=O)[C@H](CC2CCCCC2)NC(=O)CN(CC(C)C)C(=O)[C@H]2CCCN2C(=O)[C@H](CC2CCCCC2)NC(=O)[C@H](C)N(C)C(=O)[C@H](CC(C)C)NC(=O)Cn2cc(nn2)CN(C)C1=O: 2.7
CC(C)C[C@@H]1NC(=O)[C@H](Cc2ccccc2)N(C)C(=O)[C@H]2CCCN2C(=O)[C@H](CC(C)C)NC(=O)[C@H](CC(C)C)N(C)C(=O)[C@@H](C)N(C)C1=O: 3.25
CC(C)CC1NC(=O)CN(CC2CCOCC2)C(=O)C2CCCN2C(=O)C(CC(C)C)NC(=O)C(C)N(C)C(=O)C(CC(C)C)NC(=O)CN(CCCOC(C)C)C(=O)C2CCCN2C(=O)C(C)NC(=O)C(C)N(C)C1=O (stereo not shown): 1.21
CCC[C@H]1C(=O)N[C@@H](CC2CCCCC2)C(=O)N(C)[C@@H](C)C(=O)N[C@@H](CC(C)C)C(=O)N(C)Cc2cn(nn2)CC(=O)N[C@@H](C2CCCCC2)C(=O)N(C)[C@@H](C)C(=O)N[C@@H](CC2CCCCC2)C(=O)N2CCC[C@@H]2C(=O)N1C: 2.7
CCCCCN1CC(=O)N[C@@H](C)C(=O)N2CCC[C@@H]2C(=O)N(C)[C@@H](CC(C)C)C(=O)N[C@@H](C)C(=O)N(Cc2ccc3c(c2)OCO3)CC(=O)N[C@@H](CC(C)C)C(=O)N2CCC[C@@H]2C(=O)N(C)[C@@H](CC(C)C)C(=O)N[C@@H](C)C1=O: 1.91
CCN1CC(=O)N[C@@H](CC(C)C)C(=O)N2CCC[C@@H]2C(=O)N(C)[C@@H](CC(C)C)C(=O)N[C@@H](C)C(=O)N(CC2CCCCC2)CC(=O)N[C@@H](Cc2ccccc2)C(=O)N2CCC[C@@H]2C(=O)N(C)[C@@H](CC(C)C)C(=O)N[C@@H](C)C1=O: 2.33
CC(C)C[C@@H]1NC(=O)[C@H](C)N(C)C(=O)[C@H](CC2CCCCC2)NC(=O)[C@H](CC(C)C)N(C)C(=O)[C@H]2CCCN2C(=O)[C@H](CC(C)C)NC(=O)[C@H](C)N(C)C(=O)[C@H](CC(C)C)NC(=O)Cn2cc(nn2)CN(C)C1=O: 1.94
CC(C)CC1NC(=O)CN(CC2CCCCC2)C(=O)C2CCCN2C(=O)C(CC(C)C)NC(=O)C(C)N(C)C(=O)C(CC(C)C)NC(=O)CN(Cc2ccc3c(c2)OCO3)C(=O)C2CCCN2C(=O)C(Cc2ccccc2)NC(=O)C(C)N(C)C1=O (stereo not shown): ≥ 3.4

Series 3 — observed: β-arrestin recruitment; action: agonist; method: PRESTO-Tango; concentration: 10 µM; baseline: untreated; quantity: fold over basal
Structure (SMILES): N=C(N)NC(=O)c1cnn(-c2cccc3ncccc23)c1C1CC1
P2Y purinoceptor 4 (P2RY4, Homo sapiens, UniProt P51582): 0.93
Vasopressin V1a receptor (AVPR1A, Homo sapiens, UniProt P37288): 1.23
Neuromedin-B receptor (NMBR, Homo sapiens, UniProt P28336): 0.97
Opsin-5 (OPN5, Homo sapiens, UniProt Q6U736): 1.27
G-protein coupled receptor 157 (GPR157, Homo sapiens, UniProt Q5UAW9): 0.83
Galanin receptor type 3 (Homo sapiens, UniProt O60755): 1 fold
Neuropeptide Y receptor type 5 (NPY5R, Homo sapiens, UniProt Q15761): 1.17
Metabotropic glutamate receptor 6 (Homo sapiens, UniProt O15303): 0.94 fold
Galanin receptor type 1 (GALR1, Homo sapiens, UniProt P47211): 0.95 fold
Vasopressin V2 receptor (AVPR2, Homo sapiens, UniProt P30518): 1.15
5-hydroxytryptamine receptor 6 (HTR6, Homo sapiens, UniProt P50406): 0.65

Series 4 — observed: cell-free assay; method: competition with immobilised ligand; concentration: 1 µM; quantity: remaining binding
Structure (SMILES): COc1cc(-c2cn(C3CCc4ccccc4N(CC(F)(F)F)C3=O)nn2)ccc1-n1ccc(C)n1 (stereo not shown)
Ephrin type-B receptor 1 (EPHB1, Homo sapiens, UniProt P54762): 100%
Mast/stem cell growth factor receptor Kit (KIT, Homo sapiens, UniProt P10721, A829P): 68%
Receptor-interacting serine/threonine-protein kinase 1 (RIPK1, Homo sapiens, UniProt Q13546): 100%
Phosphatidylinositol 4,5-bisphosphate 3-kinase catalytic subunit delta isoform (PIK3CD, Homo sapiens, UniProt O00329): 100%
Ribosomal protein S6 kinase alpha-4, C-terminal kinase domain (RPS6KA4, Homo sapiens, UniProt O75676): 97%
Serine/threonine-protein kinase N1 (PKN1, Homo sapiens, UniProt Q16512): 100%
Uncharacterized serine/threonine-protein kinase SBK3 (SBK3, Homo sapiens, UniProt P0C264): 92%
Mast/stem cell growth factor receptor Kit (KIT, Homo sapiens, UniProt P10721): 96%
Serine/threonine-protein kinase Sgk3 (SGK3, Homo sapiens, UniProt Q96BR1): 84%
